Measurements of several laboratories.
Numbers after ± are the reported error.

The Cmax of CC1=C2C[C@H]3[C@@H](CC[C@@H]4C[C@H](NS(C)(=O)=O)CC[C@@]43C)[C@@H]2CC[C@@]2(C1)O[C@@H]1C[C@H](C)CN[C@H]1[C@H]2C is reported as 105 ng/mL (patients, plasma; oral, 60 mg daily, day 22, cycle 1).
The Cmax of CC#CC(=O)N1CCC[C@H]1c1nc(-c2ccc(C(=O)Nc3ccccn3)cc2)c2c(N)nccn12 is reported as 1120 ng/mL (Japanese patients, plasma; oral, 100 mg twice daily, day 8, fasting, multiple dose, geometric mean).
C=C(C)[C@@H]1CC[C@]2(NCCN3CCS(=O)(=O)CC3)CC[C@]3(C)[C@H](CC[C@@H]4[C@@]5(C)CC=C(C6=CC[C@@](CF)(C(=O)O)CC6)C(C)(C)[C@@H]5CC[C@]43C)[C@@H]12 has a Cmax of 920 ng/mL (HIV-1-positive treatment-naive adults, plasma; oral, 140 mg single dose, day 1, with food).
For CC(=O)Nc1ccc(O)cc1, the Cmax was 9300 ng/mL (healthy volunteers, both sexes, plasma; oral, 650 mg, day 1).
With CC1Cc2ccccc2N1NC(=O)c1ccc(Cl)c(S(N)(=O)=O)c1 (centres unmarked) the Cmax was 19.1 ± 5 ng/mL (healthy Chinese volunteers, plasma; oral, 1.25 mg, fasting, with: perindopril tert-butylamine 4 mg).
With COc1cccc(N2CCN(C3=Nc4c(F)cccc4[C@H](CC(=O)O)N3c3cc(C(F)(F)F)ccc3OC)CC2)c1 the Cmax was 7440 ± 1350 ng/mL (UHPLC-MS/MS; healthy women, plasma; intravenous infusion, 120 mg single dose, 30 min infusion, HPβCD formulation).
With COc1ccc2c3c1O[C@H]1C[C@@H](OC(=O)c4ccccc4)C=C[C@@]31CCN(C)C2 the Cmax was 43.2 ng/mL (healthy elderly men, plasma; intranasal, 44 mg, single dose).
CN1CCN(c2ccc3nc(-c4c(N)c5c(F)cccc5[nH]c4=O)[nH]c3c2)CC1 gave a Cmax of 80.1 ng/mL (patients, plasma; oral, 300 mg daily 5 days on 2 off, day 19, minimum, with: gemcitabine and capecitabine).
The Cmax of CCCC[C@H](NC(C)=O)C(=O)N[C@H]1CCC(=O)NC[C@@H](C(=O)N[C@@H](Cc2c[nH]c3ccccc23)C(N)=O)NC(=O)[C@H](CCCNC(=N)N)NC(=O)[C@@H](Cc2ccccc2)NC(=O)[C@H](Cc2c[nH]cn2)NC1=O is reported as 52.7 ng/mL (healthy volunteers, plasma; subcutaneous, 3.0 mg once daily, day 7, steady state median).
With O=C1CC[C@@]2(O)[C@H]3Cc4ccc(O)c5c4[C@@]2(CCN3CC2CC2)[C@H]1O5 the Cmax was 7.5 ± 2.5 ng/mL (hairless guinea pig, plasma; topical, 0.5 mL of 16% gel).
COc1cc(OC)c(/C=C/S(=O)(=O)Cc2ccc(OC)c(NCC(=O)O)c2)c(OC)c1 gave a Cmax of 1840 ± 1310 ng/mL (cancer patients, phase I, plasma; oral, 280 mg twice daily, day 1 cycle 1).
NCCCC[C@H](N[C@@H](CCc1ccccc1)C(=O)O)C(=O)N1CCC[C@H]1C(=O)O gave a Cmax of 12.2 ng/mL (healthy volunteers, plasma; oral, 10 mg, geometric mean, with: 200 mL green tea extract solution).
Cc1ccc(NC(=O)c2ccc(CN3CCN(C)CC3)cc2)cc1Nc1nccc(-c2cncc(-c3oncc3C)c2)n1 gave a Cmax of 538 ng/mL (healthy volunteers, plasma; oral, 12.5 mg once daily, day 1, 7-day dosing, mean).
CS(=O)(=O)n1cc2c(n1)CN([C@H]1CO[C@H](c3cc(F)ccc3F)[C@@H](N)C1)C2 has a Cmax of 803 nM (healthy Japanese men, plasma; oral, 25 mg once weekly, day 1).
With O=C(Nc1nc2cccc(-c3ccc(CN4CCS(=O)(=O)CC4)cc3)n2n1)C1CC1 the Cmax was 1170 ng/mL (healthy subjects, plasma; oral, 100 mg single dose, 1 h after itraconazole, fasting, mean, with: itraconazole 200 mg).
For CC(C)=CCC[C@](C)(O[C@@H]1O[C@H](CO)[C@@H](O)[C@H](O)[C@H]1O)[C@H]1CC[C@]2(C)[C@@H]1[C@H](O)C[C@@H]1[C@@]3(C)CC[C@H](O[C@@H]4O[C@H](CO)[C@@H](O)[C@H](O)[C@H]4O[C@@H]4O[C@H](CO)[C@@H](O)[C@H](O)[C@H]4O)C(C)(C)[C@@H]3CC[C@]12C, the Cmax was 14.5 ± 8.18 ng/mL (LC-MS/MS; healthy female volunteers, serum; oral, 3 g fermented red ginseng).
The Cmax of O=C(N[C@H]1CCN(CC2CC2)C[C@@H]1C(=O)NC1(c2ncccn2)CC1)c1cc(-c2ccc(F)cc2F)on1 is reported as 55.3 ng/mL (healthy male subjects; oral, 10 mg, fed, geometric mean, with: itraconazole 200 mg multiple doses).

For quick reference, copied from above:
With O=C1CC[C@@]2(O)[C@H]3Cc4ccc(O)c5c4[C@@]2(CCN3CC2CC2)[C@H]1O5 the Cmax was 7.5 ± 2.5 ng/mL (hairless guinea pig, plasma; topical, 0.5 mL of 16% gel).
COc1cc(OC)c(/C=C/S(=O)(=O)Cc2ccc(OC)c(NCC(=O)O)c2)c(OC)c1 gave a Cmax of 1840 ± 1310 ng/mL (cancer patients, phase I, plasma; oral, 280 mg twice daily, day 1 cycle 1).
